{"data": "Assay results collected from several papers", "note": "Parts stem from different laboratories: compare values within a part only. Several values in a cell are separate wells, animals, samples, runs or records.", "UniProt Q15746, sequence (whole entry, looked up)": "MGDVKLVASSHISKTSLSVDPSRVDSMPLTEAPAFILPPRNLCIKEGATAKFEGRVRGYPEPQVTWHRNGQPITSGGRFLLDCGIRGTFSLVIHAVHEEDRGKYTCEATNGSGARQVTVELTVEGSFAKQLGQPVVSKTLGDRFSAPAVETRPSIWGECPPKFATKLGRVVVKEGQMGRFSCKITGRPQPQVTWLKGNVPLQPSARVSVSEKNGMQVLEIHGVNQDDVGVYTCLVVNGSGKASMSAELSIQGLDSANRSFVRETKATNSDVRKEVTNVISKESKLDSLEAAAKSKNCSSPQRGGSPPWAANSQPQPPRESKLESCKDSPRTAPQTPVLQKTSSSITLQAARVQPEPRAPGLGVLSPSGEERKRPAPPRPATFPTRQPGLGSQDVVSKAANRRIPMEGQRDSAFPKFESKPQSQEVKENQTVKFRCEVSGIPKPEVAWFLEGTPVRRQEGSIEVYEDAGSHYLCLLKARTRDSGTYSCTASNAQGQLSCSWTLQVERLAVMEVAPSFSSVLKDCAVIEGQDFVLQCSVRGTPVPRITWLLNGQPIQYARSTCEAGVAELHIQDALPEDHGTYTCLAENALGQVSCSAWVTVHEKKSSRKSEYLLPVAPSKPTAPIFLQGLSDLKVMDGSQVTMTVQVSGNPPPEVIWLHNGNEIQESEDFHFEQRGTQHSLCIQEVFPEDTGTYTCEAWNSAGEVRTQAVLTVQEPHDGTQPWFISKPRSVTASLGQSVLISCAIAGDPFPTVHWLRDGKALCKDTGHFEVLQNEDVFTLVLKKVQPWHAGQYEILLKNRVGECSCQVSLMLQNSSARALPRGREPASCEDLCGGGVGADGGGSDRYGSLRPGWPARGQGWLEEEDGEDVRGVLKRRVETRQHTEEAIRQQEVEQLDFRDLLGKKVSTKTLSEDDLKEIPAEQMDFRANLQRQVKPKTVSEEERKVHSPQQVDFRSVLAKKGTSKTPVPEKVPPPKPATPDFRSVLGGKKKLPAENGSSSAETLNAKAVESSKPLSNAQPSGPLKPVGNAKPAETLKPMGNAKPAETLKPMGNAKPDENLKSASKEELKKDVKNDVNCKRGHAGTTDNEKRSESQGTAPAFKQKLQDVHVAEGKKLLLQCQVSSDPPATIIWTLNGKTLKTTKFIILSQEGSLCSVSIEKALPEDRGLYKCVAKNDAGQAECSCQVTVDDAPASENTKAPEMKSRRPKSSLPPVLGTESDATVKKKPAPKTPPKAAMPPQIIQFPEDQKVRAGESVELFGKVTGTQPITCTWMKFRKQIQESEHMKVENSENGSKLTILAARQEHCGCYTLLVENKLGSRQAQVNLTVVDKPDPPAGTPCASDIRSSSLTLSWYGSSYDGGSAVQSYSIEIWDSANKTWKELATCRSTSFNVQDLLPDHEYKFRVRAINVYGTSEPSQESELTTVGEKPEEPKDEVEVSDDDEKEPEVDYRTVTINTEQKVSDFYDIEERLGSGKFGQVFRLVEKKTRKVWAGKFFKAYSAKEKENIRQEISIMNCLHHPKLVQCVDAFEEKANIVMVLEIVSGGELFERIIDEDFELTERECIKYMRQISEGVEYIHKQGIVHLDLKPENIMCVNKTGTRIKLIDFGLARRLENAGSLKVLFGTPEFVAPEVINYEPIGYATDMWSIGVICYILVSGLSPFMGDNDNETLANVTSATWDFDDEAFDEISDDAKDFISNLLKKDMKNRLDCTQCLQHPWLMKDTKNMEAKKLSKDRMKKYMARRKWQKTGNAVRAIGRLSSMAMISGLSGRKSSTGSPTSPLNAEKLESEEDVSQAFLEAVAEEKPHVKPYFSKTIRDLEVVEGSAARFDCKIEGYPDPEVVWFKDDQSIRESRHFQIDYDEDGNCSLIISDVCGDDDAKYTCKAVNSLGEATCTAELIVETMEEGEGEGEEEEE", "UniProt Q86Z02, sequence (whole entry, looked up)": "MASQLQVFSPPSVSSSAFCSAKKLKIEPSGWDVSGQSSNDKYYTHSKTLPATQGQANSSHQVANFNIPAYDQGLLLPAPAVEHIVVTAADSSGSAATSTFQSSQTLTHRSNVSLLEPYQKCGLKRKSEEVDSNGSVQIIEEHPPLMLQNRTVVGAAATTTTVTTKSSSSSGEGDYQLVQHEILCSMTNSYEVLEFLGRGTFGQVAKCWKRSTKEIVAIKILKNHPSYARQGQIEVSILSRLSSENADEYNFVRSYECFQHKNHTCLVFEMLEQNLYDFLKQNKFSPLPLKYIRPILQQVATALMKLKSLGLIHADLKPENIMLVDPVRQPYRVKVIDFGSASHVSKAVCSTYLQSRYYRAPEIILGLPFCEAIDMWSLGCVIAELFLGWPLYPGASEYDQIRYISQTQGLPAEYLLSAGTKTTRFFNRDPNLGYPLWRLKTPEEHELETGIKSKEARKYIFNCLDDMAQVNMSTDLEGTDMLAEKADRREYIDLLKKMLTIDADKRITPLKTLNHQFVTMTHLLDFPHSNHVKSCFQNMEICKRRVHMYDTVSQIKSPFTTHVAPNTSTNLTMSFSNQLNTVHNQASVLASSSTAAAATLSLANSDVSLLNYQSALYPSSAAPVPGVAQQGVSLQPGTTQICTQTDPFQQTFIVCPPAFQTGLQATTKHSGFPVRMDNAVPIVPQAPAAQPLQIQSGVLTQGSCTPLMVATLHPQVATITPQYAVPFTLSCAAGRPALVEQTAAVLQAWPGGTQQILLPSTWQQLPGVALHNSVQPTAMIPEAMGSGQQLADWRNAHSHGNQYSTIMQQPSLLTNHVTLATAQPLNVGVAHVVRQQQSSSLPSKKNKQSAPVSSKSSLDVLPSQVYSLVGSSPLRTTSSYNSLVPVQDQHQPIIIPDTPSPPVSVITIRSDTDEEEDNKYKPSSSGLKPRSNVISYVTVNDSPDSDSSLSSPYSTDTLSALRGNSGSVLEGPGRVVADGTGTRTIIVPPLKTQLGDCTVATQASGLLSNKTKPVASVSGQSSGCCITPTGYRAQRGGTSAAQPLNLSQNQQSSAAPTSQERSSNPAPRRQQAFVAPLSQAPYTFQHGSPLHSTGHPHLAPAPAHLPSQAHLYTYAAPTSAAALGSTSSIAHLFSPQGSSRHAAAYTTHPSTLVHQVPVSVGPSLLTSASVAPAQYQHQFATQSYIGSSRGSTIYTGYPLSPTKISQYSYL", "UniProt Q16584, sequence (whole entry, looked up)": "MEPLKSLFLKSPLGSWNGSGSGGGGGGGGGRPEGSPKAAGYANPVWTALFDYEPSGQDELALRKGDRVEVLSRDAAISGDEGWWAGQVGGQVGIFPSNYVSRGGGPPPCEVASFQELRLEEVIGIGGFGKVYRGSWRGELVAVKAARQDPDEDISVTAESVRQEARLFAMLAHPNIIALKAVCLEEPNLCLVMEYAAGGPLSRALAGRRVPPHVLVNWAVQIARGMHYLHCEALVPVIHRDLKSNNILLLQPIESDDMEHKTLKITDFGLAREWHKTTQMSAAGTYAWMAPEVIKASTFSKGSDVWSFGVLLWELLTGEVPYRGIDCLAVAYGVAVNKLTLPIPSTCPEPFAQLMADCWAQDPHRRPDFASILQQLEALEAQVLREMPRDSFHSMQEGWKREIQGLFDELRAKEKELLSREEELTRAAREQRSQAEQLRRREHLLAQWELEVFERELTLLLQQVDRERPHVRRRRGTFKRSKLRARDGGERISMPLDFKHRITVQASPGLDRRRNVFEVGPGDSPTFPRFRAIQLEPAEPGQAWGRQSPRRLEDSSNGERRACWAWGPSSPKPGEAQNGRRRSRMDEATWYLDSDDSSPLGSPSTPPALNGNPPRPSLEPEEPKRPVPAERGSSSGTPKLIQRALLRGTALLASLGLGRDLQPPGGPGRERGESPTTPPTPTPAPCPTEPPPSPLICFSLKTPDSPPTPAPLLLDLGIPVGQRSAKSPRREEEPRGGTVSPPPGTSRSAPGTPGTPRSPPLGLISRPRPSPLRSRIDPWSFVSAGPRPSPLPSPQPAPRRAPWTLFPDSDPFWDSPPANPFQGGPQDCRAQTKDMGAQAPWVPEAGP"}
{"data": "Sample 1", "target": "Tyrosine-protein kinase HCK (HCK, Homo sapiens, UniProt P08631)", "read-out": "enzyme activity", "mode": "inhibitor", "concentration": "0.5 µM", "reference": "control", "UniProt P08631, sequence (whole entry, looked up)": "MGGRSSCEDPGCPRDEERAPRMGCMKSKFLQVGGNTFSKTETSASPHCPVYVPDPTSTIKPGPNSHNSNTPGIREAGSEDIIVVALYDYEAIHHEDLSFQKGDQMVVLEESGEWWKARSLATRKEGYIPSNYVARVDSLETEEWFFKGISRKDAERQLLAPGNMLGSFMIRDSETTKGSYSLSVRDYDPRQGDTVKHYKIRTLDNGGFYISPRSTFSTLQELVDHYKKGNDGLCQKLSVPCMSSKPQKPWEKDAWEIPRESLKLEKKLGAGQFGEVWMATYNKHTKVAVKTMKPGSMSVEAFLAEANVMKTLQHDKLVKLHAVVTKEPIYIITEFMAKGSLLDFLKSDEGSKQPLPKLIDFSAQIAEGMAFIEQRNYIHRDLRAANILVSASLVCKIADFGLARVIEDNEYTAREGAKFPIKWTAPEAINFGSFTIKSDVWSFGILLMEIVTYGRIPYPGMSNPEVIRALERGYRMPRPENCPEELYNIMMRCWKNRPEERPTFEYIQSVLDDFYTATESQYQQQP"}
{"SMILES": "O=C1NC(=O)/C(=C/c2ccc3c(c2)OC(F)(F)O3)S1", "remaining activity [%]": 89.8}
{"SMILES": "O=c1c(-c2ccc(F)cc2)c(-c2ccncc2)[nH]n1-c1ccc(Cl)cc1", "remaining activity [%]": 91.1}
{"SMILES": "C[C@@H](N)[C@H]1CC[C@H](C(=O)Nc2ccncc2)CC1", "remaining activity [%]": 97.9}
{"SMILES": "N#CC(c1ccnc(NCCc2cccnc2)n1)c1nc2ccccc2s1 (stereo not shown)", "remaining activity [%]": 92.2}
{"SMILES": "CC(C)n1cnc2c(Nc3cccc(Cl)c3)nc(NCCO)nc21", "remaining activity [%]": 78}
{"SMILES": "O=C(c1ccccc1)c1ccc(N2CCOCC2)cc1O", "remaining activity [%]": 114}
{"SMILES": "CC(C)N(CCC(=O)c1ccc2ccccc2c1)Cc1ccccc1", "remaining activity [%]": 94.9}
{"SMILES": "NC(=O)c1cccc(-c2cc(Nc3ccc(OC(F)(F)F)cc3)ncn2)c1", "remaining activity [%]": 92.9}
{"SMILES": "O=C1c2ccccc2-c2nc3nnnn3nc21", "remaining activity [%]": 84}
{"SMILES": "FC(F)(F)c1ccc(/C=C/c2nc(COc3ccc(CCCCn4ccnn4)cc3)co2)cc1", "remaining activity [%]": 93.9}
{"data": "Sample 2", "target": "Eukaryotic initiation factor 4A-I (EIF4A1, Homo sapiens, UniProt P60842)", "read-out": "RNA clamping", "method": "fluorescence polarization", "concentration": "concentration not given", "with": "FAM-labelled poly r(AG)8 RNA", "reading": "higher = more clamping", "UniProt P60842, sequence (whole entry, looked up)": "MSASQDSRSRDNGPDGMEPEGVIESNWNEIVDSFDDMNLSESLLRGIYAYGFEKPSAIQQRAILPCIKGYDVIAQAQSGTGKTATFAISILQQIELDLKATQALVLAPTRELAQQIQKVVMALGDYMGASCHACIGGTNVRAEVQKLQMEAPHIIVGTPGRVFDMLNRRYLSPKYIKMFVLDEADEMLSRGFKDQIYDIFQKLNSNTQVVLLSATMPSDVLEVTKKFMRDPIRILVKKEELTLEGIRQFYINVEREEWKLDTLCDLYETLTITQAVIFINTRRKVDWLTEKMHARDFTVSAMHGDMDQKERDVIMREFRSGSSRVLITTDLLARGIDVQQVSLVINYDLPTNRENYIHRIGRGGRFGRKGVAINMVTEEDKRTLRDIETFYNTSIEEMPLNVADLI"}
{"Compound": "COc1ccc([C@@]23Oc4cc(OC)cc(OC)c4[C@]2(O)[C@H](O)[C@H](CN(C)C)[C@H]3c2ccccc2)cc1", "fluorescence polarization change [mP]": 70.7}
{"Compound": "COc1ccc([C@]23[C@@H](c4ccccc4)C[C@@H](O)[C@@]2(O)c2c(F)cccc2N3C)cc1", "fluorescence polarization change [mP]": 13.8}
{"Compound": "COc1ccc([C@@]23Oc4cc(OC)cc(OC)c4[C@]2(O)c2[nH]nc(O)c2[C@H]3c2ccccc2)cc1", "fluorescence polarization change [mP]": 33.4}
{"Compound": "COC(=O)[C@@H]1[C@@H](c2ccccc2)[C@]2(c3ccc(OC)cc3)Oc3cc(OC)cc(OC)c3[C@@]23NC(c2csc(C)n2)=N[C@@]13O", "fluorescence polarization change [mP]": 27.4}
{"Compound": "COc1ccc([C@@]23Oc4cc(O)cc(OC)c4[C@]2(O)[C@H](O)[C@H](C(=O)c2ccco2)[C@H]3c2ccccc2)cc1", "fluorescence polarization change [mP]": 12.7}
{"Compound": "COC(=O)/C=C/Cn1c(-c2ccccc2)nc2c(c1=O)[C@@H](c1ccccc1)[C@]1(c3ccc(OC)cc3)Oc3cc(OC)cc(OC)c3[C@]21O", "fluorescence polarization change [mP]": 9.1}
{"data": "Sample 3", "SMILES": "CC1=C(C#N)[C@@H](c2ccc3[nH]nc(C)c3c2)C(C#N)=C(c2ccc(Cl)cc2)N1", "read-out": "cell-free assay", "method": "competition with immobilised ligand", "concentration": "1 µM"}
{"target": "RAF1 (Homo sapiens, UniProt P04049)", "remaining binding [%]": 100}
{"target": "KIT (Homo sapiens, UniProt P10721, A829P)", "remaining binding [%]": 100}
{"target": "TNK2 (Homo sapiens, UniProt Q07912)", "remaining binding [%]": 100}
{"target": "HIPK1 (Homo sapiens, UniProt Q86Z02)", "remaining binding [%]": 56.7}
{"target": "NEK10 (Homo sapiens, UniProt Q6ZWH5)", "remaining binding [%]": 59.6}
{"target": "MAP2K2 (Homo sapiens, UniProt P36507)", "remaining binding [%]": 100}
{"target": "ROCK1 (Homo sapiens, UniProt Q13464)", "remaining binding [%]": 68.5}
{"target": "NEK11 (Homo sapiens, UniProt Q8NG66)", "remaining binding [%]": 62.4}
{"target": "MAP3K14 (Homo sapiens, UniProt Q99558)", "remaining binding [%]": 100}
{"target": "ERBB3 (Homo sapiens, UniProt P21860)", "remaining binding [%]": 63.9}
{"target": "MAP3K11 (Homo sapiens, UniProt Q16584)", "remaining binding [%]": 100}
{"target": "CLK1 (Homo sapiens, UniProt P49759)", "remaining binding [%]": 100}
{"target": "CLK4 (Homo sapiens, UniProt Q9HAZ1)", "remaining binding [%]": 100}
{"target": "MYLK (Homo sapiens, UniProt Q15746)", "remaining binding [%]": 100}
{"target": "PRKCD (Homo sapiens, UniProt Q05655)", "remaining binding [%]": 86.3}
{"target": "NLK (Homo sapiens, UniProt Q9UBE8)", "remaining binding [%]": 78.9}
{"target": "TNIK (Homo sapiens, UniProt Q9UKE5)", "remaining binding [%]": 100}
{"data": "Sample 4", "host": "C57BL/6 IFN-γ knockout mouse female", "matrix": "plasma", "route": "oral", "dose": "10 mg/kg", "time": "7 h"}
{"Structure (SMILES)": "CCOC(=O)CN(C(=O)c1ccn2ncc(-c3ccc(C(=O)NC)cc3)c2c1)c1ccc(Cl)cc1", "plasma concentration": "0.128 µM and 0.059 µM and 0.108 µM"}
{"Structure (SMILES)": "CNC(=O)c1ccc(-c2cnn3ccc(C(=O)N(C[C@H]4CCC(=O)O4)c4ccc(OC(F)(F)F)cc4)cc23)cc1", "plasma concentration": "0.00183 µM and 0.0038 µM"}
{"Structure (SMILES)": "COC(=O)c1cc(Cl)ccc1N(C)C(=O)c1ccn2ncc(-c3ccc(C(N)=O)cc3)c2c1", "plasma concentration": "0.00642 µM and 0.008 µM and 0.016 µM"}
{"Structure (SMILES)": "CN(C(=O)c1ccn2ncc(-c3ccc(C(N)=O)cc3)c2c1)c1ccc(C#N)cn1", "plasma concentration": "0.469 µM and 0.23 µM"}
{"note": "Repeated from above (sample 3):"}
{"target": "CLK1 (Homo sapiens, UniProt P49759)", "remaining binding [%]": 100}
{"target": "CLK4 (Homo sapiens, UniProt Q9HAZ1)", "remaining binding [%]": 100}
{"target": "MYLK (Homo sapiens, UniProt Q15746)", "remaining binding [%]": 100}
{"target": "PRKCD (Homo sapiens, UniProt Q05655)", "remaining binding [%]": 86.3}
{"target": "NLK (Homo sapiens, UniProt Q9UBE8)", "remaining binding [%]": 78.9}
{"target": "TNIK (Homo sapiens, UniProt Q9UKE5)", "remaining binding [%]": 100}
